Published values of several laboratories.
A part holds a random share of what one study measured.

Study 1
Target: Ras GTPase-activating protein-binding protein 1, full length (G3BP1, Homo sapiens, UniProt Q13283)
Chain of UniProt Q13283 (whole entry, looked up): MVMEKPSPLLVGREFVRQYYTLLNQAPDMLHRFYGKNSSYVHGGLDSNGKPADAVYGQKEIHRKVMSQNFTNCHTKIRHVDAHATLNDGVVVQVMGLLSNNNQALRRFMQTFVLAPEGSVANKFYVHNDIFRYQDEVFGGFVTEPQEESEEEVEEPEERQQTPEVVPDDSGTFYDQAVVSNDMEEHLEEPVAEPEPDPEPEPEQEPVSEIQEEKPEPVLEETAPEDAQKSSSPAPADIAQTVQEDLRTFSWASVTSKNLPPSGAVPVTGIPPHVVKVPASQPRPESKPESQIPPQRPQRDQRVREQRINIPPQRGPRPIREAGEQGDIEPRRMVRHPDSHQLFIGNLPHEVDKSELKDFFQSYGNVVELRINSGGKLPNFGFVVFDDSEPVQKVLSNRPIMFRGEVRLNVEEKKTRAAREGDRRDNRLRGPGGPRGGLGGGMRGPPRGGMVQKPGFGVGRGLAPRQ
Technique: RNA Bind-n-Seq
Molecule type: RNA
Matrix: in vitro
Concentration: 200 nM
Setting: whole 134-nt RNA, ends assumed
Together with: 150 mM LiCl
Reference: input library
Reading: higher = stronger binding
All molecules: 7-deaza-guanosine replaces G
With `GGGAGUUCUACAGUCCGACGAUCCACAGACAACACGCACCCUCACAGACACAGAGGGAAGGGGUUGGGAUGGGGACAGGGUGCACAGCAGGGCGGGGUAGGACCCCAGCCCCUUGGAAUUCUCGGGUGUCAAGG` the log2 enrichment was -1.04.
For `GGGAGUUCUACAGUCCGACGAUCCACAGACAACACGCACCCACACAGACACAGAGGGAAGGGGUUGGGAUGGGGACAGGGUGCACAGCAGGGCGGGGUAGGAAAACAGCCCCUUGGAAUUCUCGGGUGUCAAGG`, the log2 enrichment was -0.0328.
For `GGGAGUUCUACAGUCCGACGAUCUGCAGAUUGAUGAGUAUGAUCACUCCAAGCCCAUCCAGGGGCAACAGAAGAAGCCCUUUGAGGUGCACUGGAGGAAGCACACCCUGUCCUUGGAAUUCUCGGGUGUCAAGG`, the log2 enrichment was -1.8.
For `GGGAGUUCUACAGUCCGACGAUCGUCCUGUGCUACACAUCGUAUGUACCGAAUCGGGGUGGGGUUUUUUUGGGGAAAGGGGAAAGUAUUAUGUUACGCCGUUCGGAUCUGCACUGGAAUUCUCGGGUGUCAAGG`, the log2 enrichment was 0.406.

Study 2
Target: RING finger protein unkempt homolog, zinc fingers 1-6, GST-SBP tag (UNK, Homo sapiens, UniProt Q9C0B0, residues 30-357)
Chain of UniProt Q9C0B0 (30-357, looked up): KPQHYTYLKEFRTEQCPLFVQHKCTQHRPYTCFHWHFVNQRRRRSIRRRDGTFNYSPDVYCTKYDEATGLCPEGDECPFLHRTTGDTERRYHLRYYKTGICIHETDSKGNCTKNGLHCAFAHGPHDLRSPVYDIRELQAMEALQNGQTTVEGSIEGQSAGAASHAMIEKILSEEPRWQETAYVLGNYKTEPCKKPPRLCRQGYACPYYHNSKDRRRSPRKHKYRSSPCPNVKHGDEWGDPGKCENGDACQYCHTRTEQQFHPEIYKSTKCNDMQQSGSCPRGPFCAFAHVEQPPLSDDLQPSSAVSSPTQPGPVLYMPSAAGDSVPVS
Technique: RNA Bind-n-Seq
Molecule type: RNA
Matrix: in vitro
Concentration: not given
Setting: RNA with constant flanks, human and mouse sites, ends assumed
Reference: input RNA pool
Reading: higher = stronger binding
`GGGAGUUCUACAGUCCGACGAUCGCUCACUUCGACCUUGCCUUGGCACGGUCUGCUAAACUACGAAACCCAAAAAAUGACCUCCUAGUAUUGCAUCUCUCUGACCUGAUUCGAAUGGCAUUCAUGGCUGCAACUGAUCAUAGCCAACAGAGGAUUGAGCAUCA` has a bound/input enrichment of 0.196 ratio.
`GGGAGUUCUACAGUCCGACGAUCGCCUUGGCUCCACCCAGUGUGCUUAGUACCAACGUAGGCAGUGUGUACAACACGAAGAAAGUAGGCAAGAGGCUCAACAUCCAGCUUAAGAAAGGUACAGAAGGACUGGGAUUCAGCAUCCAACAGAGGAUUGAGCAUCA` has a bound/input enrichment of 0.279 ratio.
`GGGAGUUCUACAGUCCGACGAUCAGCAGUCCAAUAUCAAGCAUAUCUGCAGAUUCUUUCUAUGCAGAUAUUGAUCACCAUACUCCACGAAAUUAUGUCCUAAUUGACGACAUUGGAGAGAUCACCAAAGGAACAGCGGCAUUACAACAGAGGAUUGAGCAUCA` has a bound/input enrichment of 0.269 ratio.
The bound/input enrichment of `GGGAGUUCUACAGUCCGACGAUCGCUGGUCAUCCUCUGGCCCAGAAUGAACGUUGUCUUCACAUGUUUUUACAGGAUGAAAUUAUAGAUAAAAGCUAUACUCCAUCUAAAAUAAGACAUGCCUGAGUUUGGUGAGAAGAAGCACAACAGAGGAUUGAGCAUCA` is reported as 0.258 ratio.

Study 3
Target: Interferon regulatory factor 5, full length, phosphomimetic (IRF5, Homo sapiens, UniProt Q13568-2, residues 1-514, K96S/S451D/S453D/S456D/S462D)
Technique: protein-binding microarray
Molecule type: double-stranded DNA, one strand shown
Matrix: in vitro
Concentration: 250 nM
Setting: 60-bp whole probe
Together with: salmon DNA 0.4 mg/ml
Reference: random background probes
Reading: higher = stronger binding
Constant ends, left off below: GCCTAGCAC … GTCTTGATTCGCTTGACGCTGCTG
The log fluorescence of `TGCTTCCTAATTCTCTTTTCGTGCTAG` is reported as 1.19 z-score.
`TTAGGTATCGACTATCAGTTAGTGCTA` has a log fluorescence of 4.77 z-score.
`GACGGTTTGGACTATCGGGACGTGCTA` gave a log fluorescence of 0.748 z-score.
The log fluorescence of `GACGGTATCGCGTTTCGGGACGTGCTA` is reported as 1.67 z-score.
With `GACGGTTTCGTTCTCGGGACGTGCTAG` the log fluorescence was 5.75 z-score.

Further values, each from its own experiment
For `PhoQ, residues 284 288 289 292 302 303 HSYLQF`, the fold induction was 15.9 (PhoP, residues 12 14 15 18 19 QYCSL (Escherichia coli, UniProt P23836); Sort-seq, measured: YFP reporter; E. coli; PhoQ-PhoP variant library, together with: 10 µM Mg2+; reference: high Mg2+ state, higher = stronger signaling).

Excerpt of the above (study 3):
`GACGGTTTGGACTATCGGGACGTGCTA` gave a log fluorescence of 0.748 z-score.
The log fluorescence of `GACGGTATCGCGTTTCGGGACGTGCTA` is reported as 1.67 z-score.
